Measured values gathered from unrelated publications.
Parts stem from different laboratories: compare values within a part only.

Series 1
Target: RING finger protein unkempt homolog, zinc fingers 1-6, GST-SBP tag (UNK, Homo sapiens, UniProt Q9C0B0, residues 30-357)
UniProt Q9C0B0, sequence (30-357, looked up): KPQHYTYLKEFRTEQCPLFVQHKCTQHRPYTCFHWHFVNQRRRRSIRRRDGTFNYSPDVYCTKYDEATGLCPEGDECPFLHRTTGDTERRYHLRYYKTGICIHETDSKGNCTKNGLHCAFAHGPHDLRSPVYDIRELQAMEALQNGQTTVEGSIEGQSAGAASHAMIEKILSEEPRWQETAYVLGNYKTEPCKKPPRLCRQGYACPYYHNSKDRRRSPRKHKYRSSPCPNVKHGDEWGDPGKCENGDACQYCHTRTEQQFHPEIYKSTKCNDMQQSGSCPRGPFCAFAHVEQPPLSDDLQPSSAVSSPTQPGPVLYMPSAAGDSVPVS
Technique: RNA Bind-n-Seq
Form: RNA
Medium: in vitro
Concentration: not given
Notes: RNA with constant flanks, human-mouse chimeric sites, ends assumed
Relative to: input RNA pool
Reading: higher = stronger binding
All sequences stand within: GGGAGUUCUACAGUCCGACGAUC … CAACAGAGGAUUGAGCAUCA
The bound/input enrichment of `AUGGAACAUUUUGAUGCAUCACUUAGUACCUAUUUCAAGGCCUUCCUGGGCCCCCGAGAUACAAGAGUCAAAGGAUGGUUCCUCCUGGACAAUUACAUCCCUACGUUUGUCUGUUCUGUU` is reported as 0.295 ratio.
For `UCCCAAAUCCAGCAGCUAGAAGGAGCCUUGAGACAAACACUCCACACGCAGGGAGGGCGAUAACAUUGUACAUUGGUUUACAUUUUUUCCCCCUGUGUUUUCUAGGGGAGGUCAUAGUGC`, the bound/input enrichment was 0.52 ratio.
With `CACGUGUCUGCAGUACUUGAUGUGGACUACUCUCCCACUGGGAAGGAAUUUGUGUCUGCUAGUUUCGAUAAGUCUAUUAGAAUCUUUCCUGUGGACAAAAGUCGAAGCAGGGAAGUGUAU` the bound/input enrichment was 1.47 ratio.
`GCGGCAGAAUCAUGGAGGACAUGAUGGAGCUCCCCAAAGCGCGCGUCAACGCCAGCAUGUUACCACAGUAUAUCGACCGGCCCGUGUGCUUCGUGGGGAAGCUGGAAAAGAUUCAUCCCA` has a bound/input enrichment of 0.158 ratio.
With `UUAAACACCAAGCUGAUGGACUCUGAUGGCCUCCAUCUCUCAGGCACGUGUGCCUUCUCUUAGUCCCUUCUGGGUUGAUGUUAUGAAUCUCAGUACUGUGGUUUGAAAGCACCAGCUUUG` the bound/input enrichment was 0.423 ratio.
The bound/input enrichment of `UCGGAUGAGGUGCUGGGUCACUUUUCAUAUCCAGAUCCUUCACAGUGGACAGAUGAAGAACUGGGAAUCCCUCCUGAUGACGAGGACUGACACUGUAAACUCUCUGGCACUCUGUACGCA` is reported as 0.374 ratio.
`GGUGGGGUGGUCAUUGCCGUUUGAGCUCUGCUGAUUCAUGAGUCGCCUUCAAAACUCUCGUGUAGGGUUGACAAUGUGGGGGGGUGGGGGAUCCAGCUAUUUUUUUUAUUUUCAAGUCCA` has a bound/input enrichment of 7.46 ratio.
`GAUAAGAAAAGCUUGUUGGAGACCCGAUUGCAUGUCACUGGCAGAGACCUGAGGUGUCAAAUAGCUGAAACUUUCGGAUUUCAAGAAAAUUACAUCAAGAUCGUAAUAAAUAAGAAACAG` has a bound/input enrichment of 0.239 ratio.
The bound/input enrichment of `CCUCCCCCGGGCCACCCACCCCUCCCGGCUCCCCGCCGAGAUCCAGGUUUCUUCUUAUUUCAUAGCAAAUAAGAAAAAUGUUCUACGCACAUUUUGUCCUCAGUAAAAGAGGGCCUCUGG` is reported as 1.26 ratio.
`UUUCUAUUGCAGCAAACCAUGCUACGAAUUAAGGAUCCUAAGAAGUCCCUGGAUUUUUAUACGAGGGUUCUUGGACUGACCCUCCUGCAGAAGCUUGACUUCCCUGCUAUGAAGUUCUCG` gave a bound/input enrichment of 0.194 ratio.
The bound/input enrichment of `GGGACUGAUUCAUCCCAAGGACAGGCCGCCCAGUCUGGUGUUUGGAAUGAUGACAGUAUGGAAGGGCCUAGUCAAAAUGUUGAAGCUGAGUCAAUUCAGGAUGCCAUGAGUAUGGAAGAG` is reported as 0.194 ratio.

Series 2
Target: RNA binding protein fox-1 homolog 2, RRM domain, GST-SBP tag (RBFOX2, Homo sapiens, UniProt O43251-10, residues 100-194)
Technique: RNA Bind-n-Seq
Form: RNA
Medium: in vitro
Concentration: 365 nM
Notes: natural RNA segment, single round, ends assumed
Relative to: no-protein control
Reading: higher = stronger binding
All sequences stand within: GGGAGUUCUACAGUCCGACGAUC … UGGAAUUCUCGGGUGCCAA
Residues (chain): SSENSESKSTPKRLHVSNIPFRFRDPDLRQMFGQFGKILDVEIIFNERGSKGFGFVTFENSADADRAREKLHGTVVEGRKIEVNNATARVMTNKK
`ACUAGAUCAUGAUAUACUUGGAAAGUGUGAAAUAUGGUGUGUACUCAGUUAUUGGCUUCCAUUUUUUAUGAUCUUUCAACUAUAACAAUUAUGAUAGAAAUCGAUUUAAC` — result for “RBNS enrichment (R)”: 0.335.
`UCUGUUGGUUCCAAUAUUCUCCCACCUAGAGCUUCCUGUUAAAGCAAGUGCGAUCAGCAACAUUUUUCAACUUUCGCGCACUGUAAACCUAUUGCAUUCUUAGGCUACUG` — result for “RBNS enrichment (R)”: 3.67.
For `CCUAGUGUCUUGGUUUACACAAUAUGACAACUGUAACUGUACUUUAGCUAUUGUUUGCCUGCACAUACAUGUUGUAAUAUGCACAGUGAUUACAACCUUUAAAGCAAGAG`, “RBNS enrichment (R)” read 2.61.
`GCUCUGGGGGCCACAGUGGGCUAUCUAGGCCCUCCCUCACCUGAGGCCCAGAGUGGACACAGCUGUUAAUUUCCACUGGCUAUGCCACUUCAGAGUCUUUCAUGCCAGCG`: “RBNS enrichment (R)” 0.285.
`AGCCCUACAAUCUGACUCCUUCUAGGGACUCUGGGGCUAGCUUUGUGGGAGAGUCAGCCCUGCCCCUCCUCUCCCAUGUGACCCUGUCAUAGUUUGCAGUGUCCUAGGUA`: “RBNS enrichment (R)” 0.391.
`AUAUGUAGCUAACAAAUUGACCUAGUUUCUGUACUUUUUUGGUUUUGUACUAAAGUUUAUAGGUCUGUGCCAGCUAGAGAGGAGUUGCUGUCAUUGCUAGUCGUGCUCUA`: “RBNS enrichment (R)” 0.479.
For `GAACCUGACAGGACGCUGAAGAUGUGCGGGCAGUUGUGCACCGUCAGUGAGGGAGAGAGACCCCGACUCCAUUUGUACUUCUUUCUUGACACUCUUCUCAGCUUAUAAAA`, “RBNS enrichment (R)” read 0.84.
For `GGAUCACUAUUACUGCUGUUGCCACUAGUGAUUCCUAGGAAAUACAUAAUUGACUUUUUCCAACAAAAUGUAUAUUAUUACAUGUUAGAUAAUAAGAACAAUUGUCCCGU`, “RBNS enrichment (R)” read 0.244.
Under “RBNS enrichment (R)”, `ACGAGACUAUAAAAGGCUUAGCCACACUACGGGACAAAUUGUGUUGUGAAUUCGCAUUGCUGUUUUGUGUACUAAAACGUAACCAUUGGCAUUGUGAACAACAAGCUCUU` is recorded as 0.399.
For `CACACAAUUGGAUAGUGACAUAGCUAGAGCGCAGAGUUCCUGAUUCCAAGUCACCUGUGCUUUCUGGGACCAAAGAAUGGGCACCUGCUGGAGUCCGGGCAGAGCUUUCU`, “RBNS enrichment (R)” read 0.326.
`UCACAUCAACAUUUGUAAAAUUGAUGUGUUAUAGUGGAAAAUAACAUAUAGAUUAAACAAAAUUUUUAUCUUUUUUCAAGAAUAUAGCUGGCUAUCUUUAAGAAAGAUGA`: “RBNS enrichment (R)” 1.13.
Under “RBNS enrichment (R)”, `CUAGGCAUUAAUACUACUUUACUAUCUAUACUGUUUAGUUAUUCCUUUCUUUACCCACCUAAACUAUCCAUCUAAUCCAGGAUUCCCUCACUCUUUUUUUUUAGUUACUA` is recorded as 0.751.

Series 3
Target: Histone acetyltransferase KAT6A, both winged helices, GST fusion (KAT6A, Homo sapiens, UniProt Q92794, residues 1-181)
Technique: protein binding microarray
Form: double-stranded DNA, one strand shown
Medium: in vitro
Concentration: not given
Notes: 8-mer, flanks averaged, mean of 2 arrays, mostly near background
Relative to: not given
Reading: higher = stronger binding
Construct (chain): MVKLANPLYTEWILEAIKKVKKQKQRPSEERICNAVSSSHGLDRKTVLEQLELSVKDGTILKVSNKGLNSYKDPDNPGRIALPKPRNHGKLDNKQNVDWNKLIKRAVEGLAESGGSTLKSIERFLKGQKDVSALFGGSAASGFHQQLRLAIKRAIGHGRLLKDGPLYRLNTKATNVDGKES
With `AAAATCAG` the E-score was -0.109.
With `GCAGTAGC` the E-score was -0.0463.
`ATGCGCCA` gave an E-score of 0.147.
`CATTCTGG` gave an E-score of -0.0557.
`AGGTATTA` has an E-score of -0.154.
The E-score of `CAGCTTTC` is reported as 0.0155.
The E-score of `GTTAGACA` is reported as -0.00878.
The E-score of `GAGACAGC` is reported as 8e-05.
`AAAAGAAC` has an E-score of -0.00751.
`AAACCTCT` has an E-score of -0.0254.
For `GCCCCGAA`, the E-score was 0.0602.
The E-score of `AAAGATTA` is reported as -0.00308.
With `AAAAGAGT` the E-score was -0.146.
The E-score of `CCATTGGA` is reported as -0.0922.
With `AAATTCAG` the E-score was -0.0667.
`GGCCGCGA` has an E-score of 0.306.
The E-score of `ACAAAATC` is reported as -0.0741.
For `ACAGCTAT`, the E-score was -0.159.
The E-score of `ATGTGGAG` is reported as -0.153.
With `GCCGCTTA` the E-score was 0.197.
The E-score of `AGATGCGG` is reported as 0.0711.
With `GTGGCTGA` the E-score was -0.0558.
`CCTTTACG` has an E-score of 0.0736.
`CCGACAGA` gave an E-score of 0.104.
With `ACATTAAT` the E-score was -0.0333.

Series 4
Target: Interferon regulatory factor 7, full length, phosphomimetic (IRF7, Homo sapiens, UniProt Q92985, residues 1-503, S101K/S471D/S472D/S475D/S476D/S477D/S483D/S484D/S487D)
UniProt Q92985, sequence (whole entry, unmodified, looked up): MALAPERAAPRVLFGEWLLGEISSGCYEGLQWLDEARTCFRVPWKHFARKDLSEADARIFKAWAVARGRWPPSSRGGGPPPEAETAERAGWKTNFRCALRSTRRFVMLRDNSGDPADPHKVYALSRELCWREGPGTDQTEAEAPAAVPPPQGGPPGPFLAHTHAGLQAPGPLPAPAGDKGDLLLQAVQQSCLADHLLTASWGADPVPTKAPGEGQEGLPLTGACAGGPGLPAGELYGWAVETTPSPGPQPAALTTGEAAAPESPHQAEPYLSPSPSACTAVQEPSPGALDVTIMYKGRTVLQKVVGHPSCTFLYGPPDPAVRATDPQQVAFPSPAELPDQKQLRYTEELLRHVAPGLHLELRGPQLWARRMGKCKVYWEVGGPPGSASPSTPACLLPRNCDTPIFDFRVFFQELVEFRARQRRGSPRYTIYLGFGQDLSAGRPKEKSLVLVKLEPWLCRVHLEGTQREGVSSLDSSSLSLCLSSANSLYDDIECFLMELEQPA
Technique: protein-binding microarray
Form: double-stranded DNA, one strand shown
Medium: in vitro
Concentration: 250 nM
Notes: 60-bp whole probe
Together with: salmon DNA 0.4 mg/ml
Relative to: random background probes
Reading: higher = stronger binding
All sequences stand within: GCCTAGCAC … GTCTTGATTCGCTTGACGCTGCTG
The log fluorescence of `GACGGACTGGGTATCGGGATGTGCTAG` is reported as -0.286 z-score.
The log fluorescence of `TCCATTTTGTGTTTTCATTTGTGCTAG` is reported as 1.91 z-score.
With `GACGATCTCAGTATCGAAACGTGCTAG` the log fluorescence was 0.331 z-score.
`AACGATATCGGGACTGGAGACGTGCTA` has a log fluorescence of -0.238 z-score.
With `GAGGATCTCAGTTTCGAGACGTGCTAG` the log fluorescence was 3.69 z-score.
The log fluorescence of `TTAGGACTGCTCATCCTTTAGTGCTAG` is reported as -0.208 z-score.
For `GACGGTCTCCTTATCTTGACGTGCTAG`, the log fluorescence was 0.164 z-score.
`ATTGTTTTCAGTTTCACTGCGTGCTAG` gave a log fluorescence of 3.06 z-score.
`TTAGGACTGGACTCTGGGTTAGTGCTA` gave a log fluorescence of -0.522 z-score.
With `GACGGTCTGGGTCTCGGGACGTGCTAG` the log fluorescence was -0.207 z-score.
With `TTATGTCTCCTACTGCTTTAGTGCTAG` the log fluorescence was 0.349 z-score.
`TTCTAAATATCTTTGTTGAAGTGCTAG` has a log fluorescence of -0.253 z-score.
`GGCGGTATCGGTCTCGGGACGTGCTAG` has a log fluorescence of 0.422 z-score.
`GACGATCTCAGTTTCCAGACGTGCTAG` gave a log fluorescence of 0.8 z-score.
With `GACGATTTCCGTCTCGAGACGTGCTAG` the log fluorescence was 0.863 z-score.
`TTAGGATTCCTTTCCCTTTAGTGCTAG` gave a log fluorescence of 1.86 z-score.
`TCACATACGAGTTTCCATTTGTGCTAG` gave a log fluorescence of 6.56 z-score.

Excerpt of the above (series 3):
The E-score of `ACAAAATC` is reported as -0.0741.
For `ACAGCTAT`, the E-score was -0.159.
The E-score of `ATGTGGAG` is reported as -0.153.
With `GCCGCTTA` the E-score was 0.197.
